Results pooled from the literature.
Sequence of UniProt P37136 (whole entry, looked up): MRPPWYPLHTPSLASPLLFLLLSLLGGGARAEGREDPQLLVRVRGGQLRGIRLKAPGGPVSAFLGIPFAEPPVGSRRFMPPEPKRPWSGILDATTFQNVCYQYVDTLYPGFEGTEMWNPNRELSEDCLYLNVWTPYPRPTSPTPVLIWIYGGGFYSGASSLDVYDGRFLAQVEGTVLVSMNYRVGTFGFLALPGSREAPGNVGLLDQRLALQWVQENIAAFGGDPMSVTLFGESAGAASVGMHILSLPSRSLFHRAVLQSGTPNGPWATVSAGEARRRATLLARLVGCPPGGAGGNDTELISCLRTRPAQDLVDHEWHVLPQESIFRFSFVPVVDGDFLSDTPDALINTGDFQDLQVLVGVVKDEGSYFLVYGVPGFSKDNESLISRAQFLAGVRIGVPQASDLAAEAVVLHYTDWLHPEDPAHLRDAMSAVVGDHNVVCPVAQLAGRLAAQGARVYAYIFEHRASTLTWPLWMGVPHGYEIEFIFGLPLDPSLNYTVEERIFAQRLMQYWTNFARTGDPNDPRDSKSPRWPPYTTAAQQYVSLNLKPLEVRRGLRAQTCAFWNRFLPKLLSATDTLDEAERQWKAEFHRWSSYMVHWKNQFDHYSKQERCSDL

| Molecule | tested on | assay | system | setting | scale | quantity | result |
| --- | --- | --- | --- | --- | --- | --- | --- |
| maraviroc | – | – | black CYP3A5 poor metabolizers, plasma | 300 mg twice daily | – | C12 | 59.8 ng/mL |
| chicoric acid | IPEC-J2 monolayer | – | – | with: chloroquine 30 µM | relative to: without inhibitor | Papp apical to basolateral | decreased |
| deucravacitinib | – | multiple ascending dose | healthy human | oral, 12 mg once daily | – | subjects with rash | 44.4% |
| phoxim-oxon | Ache (Rattus norvegicus, UniProt P37136) | inhibitor | rat, postnatal day 12, rat serum | – | – | IC50 | 31 nM |
| semaglutide | – | item: any adverse event | human, safety analysis set | concentration not given, 32 weeks, run-in | – | participants with adverse events | 79.2% |

Repeated from above:
| Molecule | tested on | assay | system | setting | scale | quantity | result |
| --- | --- | --- | --- | --- | --- | --- | --- |
| phoxim-oxon | Ache (Rattus norvegicus, UniProt P37136) | inhibitor | rat, postnatal day 12, rat serum | – | – | IC50 | 31 nM |
